Assay results pooled from the literature.
Numbers after ± are the reported error.
Cell line: HeLa

| SMILES | test | conditions | IC50 |
| --- | --- | --- | --- |
| CC[P+](c1ccc(C)cc1)(c1ccc(C)cc1)c1ccc(C)cc1 | cell growth or viability, resazurin | 72 h | 3.83 µM |
| C[C@@H]1CC[C@@H]([C@@](O)(CNCc2ccc(F)cc2)COCc2ccc(F)cc2)[C@H](OCc2ccc(F)cc2)C1 | cell growth or viability, MTT | 72 h | 2.7 µM |
| N#Cc1c(-c2cccs2)cc(-c2cccc3ccccc23)nc1Nc1ccc(Nc2nc(-c3cccc4ccccc34)cc(-c3cccs3)c2C#N)cc1 | cell growth or viability, MTT | 72 h | 0.244 µM |
| COc1ccccc1C(=O)c1c(-n2c(C(=O)c3ccccc3OC)cc(Cl)c2Cl)c(Cl)c(Cl)n1C | cell growth or viability, resazurin | 24 h | > 64 µg/mL |
| O=C(Cc1ccc(-c2ccc(OCCN3CCOCC3)cc2)cn1)NCc1cccc(F)c1 | cell growth or viability, CCK-8 | 48 h | 0.53 µM |
| CCC(C(=O)O)C1(O)CCCCC1 (stereo not drawn) | cell growth or viability | 72 h | > 200 µM |
| COc1ccc(COC[C@](O)(CNCc2ccccc2)[C@@H]2CC[C@@H](C)C[C@H]2OCc2ccc(OC)cc2)cc1 | cell growth or viability, MTT | 72 h | 3.1 µM |
| COc1cc(OC)c(C(C)=O)c(OC)c1 | cell growth or viability, MTT | 48 h | 26.3 µM |
| C=C1C(=O)OC2C=C(C)CCC=C(C(=O)OC(C)C(C)(O)C(=O)OC3C(OC(C)=O)C(C(=O)OC)=CCCC(C)=CC4OC(=O)C(=C)C43)CC(OC(=O)C(C)=CC)C12 (stereo not drawn) | cell growth or viability | 48 h | 1.69 µM |
| COC(=O)c1ccc(-n2nc(C(F)(F)F)cc2-c2cc(OC)c(OC)c(OC)c2)cc1 | cell growth or viability, SRB |  | 5.5 µM |
| [Cl][Pd-]1([Cl])[S]C(Nc2ccccc2)=N[N+]1=Cc1cccs1 | cell growth or viability |  | 22 µM |
| Cc1cc(N2CCN(C(=O)CN3CCN(c4ccccc4)CC3)CC2)n2ncnc2n1 | cell growth or viability, MTT |  | 9.88 µM |
| O=C(Cc1ccc(-c2ccc(OCCN3CCOCC3)cc2)cn1)NCc1ccccn1 | cell growth or viability, CCK-8 | 48 h | > 4 µM |
| COc1ccc([C@@H]2COc3cc(O)ccc3C2)c(OC)c1 | cell growth or viability, MTT | 72 h | 40.1 µM |
| CO[C@@H]1[C@@H](O[C@@H]2O[C@H](C)[C@@H](O[C@H]3C[C@@](C)(O)[C@@H](OC(=O)C4CCCCC4)[C@H](C)O3)[C@H](N(C)C)[C@H]2O)[C@@H](CC=O)C[C@@H](C)[C@@H](O[C@H]2CC[C@H](N(C)C)[C@@H](C)O2)/C=C/C=C/C[C@@H](C)OC(=O)C[C@H]1O | cell growth or viability, CCK-8 | 72 h | 8.5 µM |
| CN(Cc1ccccc1)C(=O)Cc1ccc(-c2ccc(OCCN3CCOCC3)cc2)cn1 | cell growth or viability, CCK-8 | 48 h | > 1 µM |
| Cc1cc(C#N)cc(C)c1Oc1cc(Nc2ccc(C#N)cn2)nc2ccncc12 |  | 48 h | > 127 µM |
| COC(=O)[C@@H](NC(=O)[C@@H](NC(=O)[C@@H](NC(=O)OC(C)(C)C)C(C)C)C(C)C)C(C)C | cell growth or viability, SRB |  | 14 µM |
| CC12CCC3c4ccc(OCCCOc5no[n+]([O-])c5S(=O)(=O)c5ccccc5)c(Br)c4CCC3C1CCC2O (stereo not drawn) | cell growth or viability, MTT | 48 h | 3.58 µM |
| CC(=O)OC[C@H]1O[C@@H](NC(=O)/C=C/c2ccc(-c3ccccc3)cc2)[C@H](OC(C)=O)[C@@H](OC(C)=O)[C@@H]1OC(C)=O | cell growth or viability | 96 h | ≥ 250 µM |
| CCCCC[P+](c1ccc(C)cc1)(c1ccc(C)cc1)c1ccc(C)cc1 | cell growth or viability, resazurin | 72 h | 0.45 µM |
| O=c1[nH]c(=O)n([C@@H]2O[C@H](CSSc3ccccn3)[C@@H](O)[C@H](F)[C@H]2O)cc1F | cell growth or viability |  | 35 µM |
| COc1cccc2c(NCc3ccccc3)nc(Nc3cccc(Cl)c3)nc12 | ODD-Luc degradation | p97-independent substrate | 18 ± 4 µM |
| CC(C)c1ccc(C[C@H](C)C(=O)N[C@@H]2O[C@H](CO)[C@@H](O)[C@H](O)[C@H]2O)cc1 | cell growth or viability | 96 h | > 250 µM |
| O=[N+]([O-])[O-].O=[N+]([O-])[O-].[Cu+2].[Cu+2].c1ccc(-c2nc(-c3ccc4c(c3)OCO4)n[n-]2)nc1.c1ccc(-c2nc(-c3ccc4c(c3)OCO4)n[n-]2)nc1 | cell growth or viability, MTT | 24 h | 3.57 µM |
| O=[N+]([O-])c1ccc(NC(=S)N/N=C/c2cccs2)cc1 | cell growth or viability |  | 12 µM |

| SMILES | test | conditions | IC50 |
| --- | --- | --- | --- |
| CO[C@@H]1[C@@H](O[C@@H]2O[C@H](C)[C@@H](O[C@H]3C[C@@](C)(O)[C@@H](OC(=O)Cc4ccc(C(C)(C)C)cc4)[C@H](C)O3)[C@H](N(C)C)[C@H]2O)[C@@H](CC=O)C[C@@H](C)[C@@H](O[C@H]2CC[C@H](N(C)C)[C@@H](C)O2)/C=C/C=C/C[C@@H](C)OC(=O)C[C@H]1O | cell growth or viability, CCK-8 | 72 h | 2.05 µM |
| C=C(C)[C@@H]1CC[C@]2(COC(=O)CCC(=O)O)CC[C@]3(C)[C@H](CC[C@@H]4[C@@]5(C)CC[C@H](OC(=O)CCC(=O)O)C(C)(C)[C@@H]5CC[C@]43C)[C@@H]12 | cell growth or viability, SRB | 72 h | 8.25 µg/mL |
| CCC1=C(CC)C2=[N+]3C1=Cc1c(CC)c(CC)c4[n]1[Ir-3]31([n+]3ccccc3)([n+]3ccccc3)[n]3c(c(CC)c(CC)c3=CC3=[N+]1C(=C4)C(CC)=C3CC)=C2.Cl | cell growth or viability, MTT | 72 h | 0.1 µM |
| C[C@@H]1CC[C@@H]([C@](O)(COCc2ccccc2)Cn2cnc3ccccc32)[C@H](OCc2ccccc2)C1 | cell growth or viability, MTT | 72 h | 4 µM |
| CCCC/C=N/NC(=O)c1cc2cc(Nc3nccc(-c4cccnc4)n3)ccc2[nH]1 | cell growth or viability, MTT | 48 h | > 20 µM |
| Cc1cc(C=O)cc(C)c1Oc1cc(Nc2ccc(C#N)cn2)nc2ccncc12 |  | 48 h | > 126 µM |
| NC(=O)c1ccc(-c2ccccc2F)c2c3c([nH]c12)CCCC3 | cell growth or viability |  | > 10 µM |
| COc1cc(CN2CCN(c3ccc(Cl)cc3)CC2)c2cc3[n+](cc2c1O)CCc1cc2c(cc1-3)OCO2 | cell growth or viability, SRB | 48 h | 4.24 µg/mL |
| O=C(Cc1ccc(-c2ccc(OCCN3CCOCC3)cc2)cn1)NCC1CCCCC1 | cell growth or viability, CCK-8 | 48 h | > 4 µM |
| COc1cccc2c1C(=O)c1c(O)c3c(c(O)c1C2=O)C[C@@](O)(C(=O)CO)C[C@@H]3O[C@H]1C[C@H](N)[C@@H](O)[C@H](C)O1 | cell viability, MTT | 2 h exposure then 72 h culture | 0.2 ± 0.11 µg/mL |
| CC1=CC(C)=[O+][Pt-2]([NH3+])([NH3+])[O]1.CC1=CC(C)=[O+][Pt-2]([NH3+])([NH3+])[O]1.O=S(=O)([O-])[O-] (stereo not drawn) | cell growth or viability, MTT |  | 32 µM |
| CO[C@@H]1[C@@H](O[C@@H]2O[C@H](C)[C@@H](O[C@H]3C[C@@](C)(O)[C@@H](O)[C@H](C)O3)[C@H](N(C)C)[C@H]2O)[C@@H](CC=O)C[C@@H](C)[C@@H](O[C@H]2CC[C@H](N(C)C)[C@@H](C)O2)/C=C/C=C/C[C@@H](C)OC(=O)C[C@H]1OC(=O)c1ccc(C(C)(C)C)cc1 | cell growth or viability, CCK-8 | 72 h | 26.4 µM |
| CC(C)(C)c1cc2c(O)c(c1)Cc1cc(C(C)(C)C)cc(c1OCC(=O)NCc1ccncc1)Cc1cc(C(C)(C)C)cc(c1O)Cc1cc(C(C)(C)C)cc(c1OCC(=O)NCc1ccncc1)COC2 | cell growth or viability, MTT | 72 h | 3.9 µM |
| CCc1ccc([C@H](C)CC(=O)N[C@@H]2O[C@H](COC(C)=O)[C@@H](OC(C)=O)[C@H](OC(C)=O)[C@H]2OC(C)=O)cc1 | cell growth or viability | 96 h | ≥ 250 µM |
| Nc1nc2c(ncn2CC(=O)N[C@@H](Cc2ccccc2)C(=O)N[C@@H](Cc2ccccc2)C(=O)N[C@@H](Cc2ccc(O)cc2)C(=O)O)c(=O)[nH]1 |  |  | > 500 µM |
| CN(C)CCCO/N=C1/C=C2CCC3C(CC[C@]4(C)/C(=C/c5ccccn5)CCC34)[C@@]2(C)CC1 (stereo partly drawn) | cell growth or viability, MTT | 72 h | > 100 µM |
| CO[C@@H]1[C@@H](O[C@@H]2O[C@H](C)[C@@H](O[C@H]3C[C@@](C)(O)[C@@H](OC(=O)Nc4ccc(C)cc4)[C@H](C)O3)[C@H](N(C)C)[C@H]2O)[C@@H](CC=O)C[C@@H](C)[C@@H](O[C@H]2CC[C@H](N(C)C)[C@@H](C)O2)/C=C/C=C/C[C@@H](C)OC(=O)C[C@H]1O | cell growth or viability, CCK-8 | 72 h | 9.91 µM |
| F[P-](F)(F)(F)(F)F.O=C(CCC(=O)c1ccccc1)NCCN(CC(=O)Nc1ccc(C#CCN(Cc2ccccn2)Cc2ccccn2)cc1)C(=O)CCc1cn(C[c-]2cccc2)nn1.[C-]#[O+].[C-]#[O+].[C-]#[O+].[Fe+2].[Re+].c1cc[cH-]c1 | cell viability, resazurin | 48 h | 13.5 ± 2.6 µg/mL |
| COc1ccc(C[C@H](NC(=O)[C@H](C)NC(=O)CN2CCOCC2)C(=O)N[C@@H](Cc2ccccc2)C(=O)C2(C)CO2)cc1 (stereo in doubt) | cell growth or viability, resazurin | 48 h | 0.35 µM |
| O=C1/C(=C(\O)c2ccccc2)C(=O)[C@@]2(C(=O)OC3CCCCC3)CS[C@H](c3ccccc3)N12 | cell growth or viability, resazurin |  | 31.3 µg/mL |
| S=c1n(-c2ccccc2)c2c3ccccc3nc3[n+]2[n]1[Ir-3]12([S]3)([c]3cccc4ccc5ccc[n+]1c5c34)[c]1cccc3ccc4ccc[n+]2c4c13 | cell viability, MTT | irradiation 450 nm, 15.5 mW/cm^2, 15 min | 0.0015 ± 0.0003 µM |
| COc1cc([C@@H]2c3cc4c(cc3[C@H](OC(=O)CCCc3ccc(NS(=O)(=O)c5ccccc5Br)cc3)[C@H]3COC(=O)[C@H]23)OCO4)cc(OC)c1OC | cell growth or viability, CCK-8 | 24 h | 55.4 µM |
| O=C(Cc1ccc(-c2ccc(OCCN3CCOCC3)cc2)cn1)NCc1ccccc1O | cell growth or viability, CCK-8 | 48 h | 2.1 µM |
| CCCCCCCCCCCCOc1c(O)cc(C(=O)O[C@@H]2Cc3c(O)cc(O)cc3O[C@@H]2c2cc(O)c(O)c(O)c2)cc1O | cell growth or viability, CCK-8 | 24 h | 81.3 µM |
| O=C(COc1ccc(-c2ccccc2)cc1)N[C@@H]1O[C@H](CO)[C@@H](O)[C@H](O)[C@H]1O | cell growth or viability | 96 h | > 250 µM |

Some of these lines once more:
| SMILES | test | conditions | IC50 |
| --- | --- | --- | --- |
| CCCCCCCCCCCCOc1c(O)cc(C(=O)O[C@@H]2Cc3c(O)cc(O)cc3O[C@@H]2c2cc(O)c(O)c(O)c2)cc1O | cell growth or viability, CCK-8 | 24 h | 81.3 µM |
| CO[C@@H]1[C@@H](O[C@@H]2O[C@H](C)[C@@H](O[C@H]3C[C@@](C)(O)[C@@H](OC(=O)C4CCCCC4)[C@H](C)O3)[C@H](N(C)C)[C@H]2O)[C@@H](CC=O)C[C@@H](C)[C@@H](O[C@H]2CC[C@H](N(C)C)[C@@H](C)O2)/C=C/C=C/C[C@@H](C)OC(=O)C[C@H]1O | cell growth or viability, CCK-8 | 72 h | 8.5 µM |
| COc1ccc([C@@H]2COc3cc(O)ccc3C2)c(OC)c1 | cell growth or viability, MTT | 72 h | 40.1 µM |
| O=C(Cc1ccc(-c2ccc(OCCN3CCOCC3)cc2)cn1)NCc1cccc(F)c1 | cell growth or viability, CCK-8 | 48 h | 0.53 µM |
| Cc1cc(N2CCN(C(=O)CN3CCN(c4ccccc4)CC3)CC2)n2ncnc2n1 | cell growth or viability, MTT |  | 9.88 µM |
| N#Cc1c(-c2cccs2)cc(-c2cccc3ccccc23)nc1Nc1ccc(Nc2nc(-c3cccc4ccccc34)cc(-c3cccs3)c2C#N)cc1 | cell growth or viability, MTT | 72 h | 0.244 µM |
| O=C(Cc1ccc(-c2ccc(OCCN3CCOCC3)cc2)cn1)NCc1ccccn1 | cell growth or viability, CCK-8 | 48 h | > 4 µM |
